Results of several laboratories.
Compare with care: the assays were run in different laboratories. Values joined by “and” are separate records of one study, mostly repeats; a detail may differ.
Cell line: SK-OV-3
Read-out: cell growth or viability

O=C(Cc1ccc2ccccc2c1)N[C@H](Cc1ccc(OP(=O)(O)O)cc1)C(=O)N[C@H](Cc1ccccc1)C(=O)N[C@H](Cc1ccccc1)C(=O)N[C@H](Cc1ccc(OP(=O)(O)O)cc1)C(=O)O
IC50 (MTT): > 483 µg/mL

C=CC[P](c1ccccc1)(c1ccccc1)[Pt]([S]c1nc2ccccc2s1)([S]c1nc2ccccc2s1)[P](CC=C)(c1ccccc1)c1ccccc1
IC50 (MTT): 22.1 µM

NC1CCCCC1N.O=C1[O][Pt]([O]C(=O)c2ccc(P(c3ccccc3)c3ccccc3)cc2)([O]C(=O)c2ccc(P(c3ccccc3)c3ccccc3)cc2)[O]C1=O.[Cl][Au].[Cl][Au]
IC50 (resazurin; 72 h): 2.99 µM

C[C@H]1C(OCCCCCC[P+](c2ccccc2)(c2ccccc2)c2ccccc2)O[C@@H]2O[C@@]3(C)CCC4[C@H](C)CCC1[C@]42OO3 (stereo partly shown)
IC50 (MTT; 72 h): 0.105 µM

O=C(Cc1ccc2ccccc2c1)N[C@H](Cc1ccc(O)cc1)C(=O)N[C@H](Cc1ccccc1)C(=O)N[C@H](Cc1ccccc1)C(=O)N[C@H](Cc1ccc(O)cc1)C(=O)O
IC50 (MTT): > 500 µg/mL

C=CC[P](c1ccccc1)(c1ccccc1)[Pt]([S]c1ccc(C(F)(F)F)cn1)([S]c1ccc(C(F)(F)F)cn1)[P](CC=C)(c1ccccc1)c1ccccc1
IC50 (MTT): 12.4 µM and 17.5 µM

C[C@H]1C(OCCCCC[P+](c2ccccc2)(c2ccccc2)c2ccccc2)O[C@@H]2O[C@@]3(C)CCC4[C@H](C)CCC1[C@]42OO3 (stereo partly shown)
IC50 (MTT; 72 h): 0.095 µM

O=C(Cc1ccc2ccccc2c1)N[C@H](Cc1ccccc1)C(=O)N[C@H](Cc1ccccc1)C(=O)N[C@H](Cc1ccc(O)cc1)C(=O)N[C@H](Cc1ccc(O)cc1)C(=O)O
IC50 (MTT): > 500 µg/mL

C[C@H]1C(OCCCCCCCCCCCC[P+](c2ccccc2)(c2ccccc2)c2ccccc2)O[C@@H]2O[C@@]3(C)CCC4[C@H](C)CCC1[C@]42OO3 (stereo partly shown)
IC50 (MTT; 72 h): 0.0773 µM

O=C(Cc1ccc2ccccc2c1)N[C@H](Cc1ccccc1)C(=O)N[C@H](Cc1ccccc1)C(=O)N[C@H](Cc1ccc(OP(=O)(O)O)cc1)C(=O)N[C@H](Cc1ccc(OP(=O)(O)O)cc1)C(=O)O
IC50 (MTT): > 483 µg/mL

C[C@H]1C(OCCCCCCCCCCC[P+](c2ccccc2)(c2ccccc2)c2ccccc2)O[C@@H]2O[C@@]3(C)CCC4[C@H](C)CCC1[C@]42OO3 (stereo partly shown)
IC50 (MTT; 72 h): 0.119 µM

O=C(O)c1ccc([PH]([Au][Cl])(c2ccccc2)c2ccccc2)cc1
IC50 (resazurin; 72 h): 49 µM

C=CC[P](c1ccccc1)(c1ccccc1)[Pt]([Cl])([Cl])[P](CC=C)(c1ccccc1)c1ccccc1
IC50 (MTT): 34.5 µM

Repeated from above:
C=CC[P](c1ccccc1)(c1ccccc1)[Pt]([S]c1ccc(C(F)(F)F)cn1)([S]c1ccc(C(F)(F)F)cn1)[P](CC=C)(c1ccccc1)c1ccccc1
IC50 (MTT): 12.4 µM and 17.5 µM
